Results gathered from unrelated publications.
± marks the error that the study gave.

Structure (SMILES)	organism	test	test system	conditions	MIC
Cc1ccc(S(=O)(=O)N2C(=O)CSC2c2cccc(Br)c2)cc1 (stereo not shown)	Streptococcus pneumoniae	broth microdilution	ATCC 49619	–	64 µg/mL
CCN(CC)C(=S)SSC(=S)N(CC)CC	Cryptococcus neoformans	–	H99 wild type	48 h, 30 °C, SC medium, together with: CuSO4 0.01 mM	2 µM
CC1(C)S[C@@H]2[C@H](NC(=O)[C@H](N)c3ccccc3)C(=O)N2[C@H]1C(=O)O	Streptococcus pneumoniae	broth microdilution	ATCC 49619	–	8 µg/mL
Fc1cc(-c2nc3ccc(Cl)cc3[nH]2)ccc1OCCN1CCOCC1	Enterococcus faecalis	microbial growth, broth dilution	ATCC29212	–	> 256 µg/mL
O=C(O)c1ccc(-n2nc(-c3ccccc3O)nc2-c2ccccc2O)cc1	Cryptococcus neoformans	microbial growth, broth dilution	–	48 h	> 100 µM
Fc1ccc2nc(-c3ccc(OCc4cn(CCN5CCOCC5)nn4)cc3)[nH]c2c1	Enterococcus faecalis	microbial growth, broth dilution	ATCC29212	–	0.25 µg/mL
Cc1ccc(S(=O)(=O)N2C(=O)CSC2c2ccccc2O)cc1 (stereo not shown)	Streptococcus pneumoniae	broth microdilution	ATCC 49619	–	128 µg/mL
Oc1c(I)cc(Cl)c2cccnc12	Cryptococcus neoformans	–	H99 wild type	48 h, 30 °C, SC medium, no added copper	50 µM
Cc1c(CN(C)C(=O)/C=C/c2cnc3c(c2)CCC(=O)N3)oc2ccccc12	Gram-negative ESKAPE pathogens, Escherichia coli	–	–	up to solubility limit	> 32 µg/mL
Clc1ccc2nc(-c3ccc(OCCN4CCOCC4)cc3)[nH]c2c1	Enterococcus faecalis	microbial growth, broth dilution	ATCC29212	–	0.25 to 1 µg/mL
Cc1ccc(S(=O)(=O)N2C(=O)CSC2c2ccccc2[N+](=O)[O-])cc1 (stereo not shown)	Streptococcus pneumoniae	broth microdilution	ATCC 49619	–	64 µg/mL
Fc1ccc2nc(-c3ccc(OCc4cn(CCN5CCOCC5)nn4)c(F)c3)[nH]c2c1	Enterococcus faecalis	microbial growth, broth dilution	ATCC29212	–	> 256 µg/mL
CC1(C)S[C@@H]2[C@H](NC(=O)[C@H](N)c3ccccc3)C(=O)N2[C@H]1C(=O)O	Lacticaseibacillus paracasei subsp. paracasei	broth microdilution	ATCC 27216, MRS medium	24 h, 37 °C	2.5 ± 0.2 µg/mL
